Published values collected from several papers.
Each line is one published result; not all experiments were run side by side. Values joined by “and” are separate records of one study, mostly repeats; a detail may differ. ± marks the error that the study gave.
Rhomboid protease AarA: Rhomboid protease AarA (Providencia stuartii, UniProt P46116)
Sequence of UniProt P46116 (whole entry, looked up): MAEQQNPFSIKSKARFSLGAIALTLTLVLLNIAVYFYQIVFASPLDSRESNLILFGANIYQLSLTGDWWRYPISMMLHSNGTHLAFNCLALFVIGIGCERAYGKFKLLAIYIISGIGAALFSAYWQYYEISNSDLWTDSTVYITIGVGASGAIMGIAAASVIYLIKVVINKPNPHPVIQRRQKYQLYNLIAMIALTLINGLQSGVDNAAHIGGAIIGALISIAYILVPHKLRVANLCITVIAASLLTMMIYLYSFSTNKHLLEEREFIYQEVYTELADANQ
PPARG ligand-binding domain: Peroxisome proliferator-activated receptor gamma, ligand-binding domain (PPARG, Homo sapiens, UniProt P37231)
Sequence of UniProt P37231 (whole entry, looked up): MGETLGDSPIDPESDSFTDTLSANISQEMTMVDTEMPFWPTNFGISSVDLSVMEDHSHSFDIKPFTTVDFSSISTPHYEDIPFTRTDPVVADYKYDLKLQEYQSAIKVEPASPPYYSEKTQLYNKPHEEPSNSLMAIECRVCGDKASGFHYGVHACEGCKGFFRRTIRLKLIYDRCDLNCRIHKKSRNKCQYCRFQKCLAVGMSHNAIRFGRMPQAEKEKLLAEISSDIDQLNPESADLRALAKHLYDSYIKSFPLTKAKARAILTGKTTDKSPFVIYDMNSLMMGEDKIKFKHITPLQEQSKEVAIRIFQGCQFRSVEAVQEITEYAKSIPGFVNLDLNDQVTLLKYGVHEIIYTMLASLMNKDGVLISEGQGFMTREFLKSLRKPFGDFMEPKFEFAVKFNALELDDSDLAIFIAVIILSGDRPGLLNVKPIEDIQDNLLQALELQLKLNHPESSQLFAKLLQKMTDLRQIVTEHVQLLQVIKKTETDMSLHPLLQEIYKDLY
Melanoma-associated antigen 4 MAGE homology domain: Melanoma-associated antigen 4, MAGE homology domain (Homo sapiens, UniProt P43358)
Sequence of UniProt P43358 (whole entry, looked up): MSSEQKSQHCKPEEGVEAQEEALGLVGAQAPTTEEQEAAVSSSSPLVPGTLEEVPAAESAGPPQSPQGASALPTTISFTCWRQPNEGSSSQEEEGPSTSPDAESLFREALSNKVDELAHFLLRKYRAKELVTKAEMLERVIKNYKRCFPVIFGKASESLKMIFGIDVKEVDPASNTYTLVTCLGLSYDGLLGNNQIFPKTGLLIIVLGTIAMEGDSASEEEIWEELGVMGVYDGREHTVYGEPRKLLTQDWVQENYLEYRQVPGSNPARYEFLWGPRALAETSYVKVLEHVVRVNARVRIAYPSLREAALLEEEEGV
PPARG: Peroxisome proliferator-activated receptor gamma (PPARG, Homo sapiens, UniProt P37231)
HDAC1: Histone deacetylase 1 (HDAC1, Homo sapiens, UniProt Q13547)
Sequence of UniProt P51681 (whole entry, unmodified, looked up): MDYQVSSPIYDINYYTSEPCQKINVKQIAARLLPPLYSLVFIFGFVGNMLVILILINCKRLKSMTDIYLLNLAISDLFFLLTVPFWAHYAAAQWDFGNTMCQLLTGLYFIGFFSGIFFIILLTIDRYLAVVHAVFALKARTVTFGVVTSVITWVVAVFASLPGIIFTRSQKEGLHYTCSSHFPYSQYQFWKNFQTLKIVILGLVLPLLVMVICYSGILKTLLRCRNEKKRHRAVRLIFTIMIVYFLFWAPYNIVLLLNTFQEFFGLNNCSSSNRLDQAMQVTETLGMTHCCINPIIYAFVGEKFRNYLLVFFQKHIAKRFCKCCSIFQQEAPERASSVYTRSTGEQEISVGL
Sequence of UniProt Q13547 (whole entry, looked up): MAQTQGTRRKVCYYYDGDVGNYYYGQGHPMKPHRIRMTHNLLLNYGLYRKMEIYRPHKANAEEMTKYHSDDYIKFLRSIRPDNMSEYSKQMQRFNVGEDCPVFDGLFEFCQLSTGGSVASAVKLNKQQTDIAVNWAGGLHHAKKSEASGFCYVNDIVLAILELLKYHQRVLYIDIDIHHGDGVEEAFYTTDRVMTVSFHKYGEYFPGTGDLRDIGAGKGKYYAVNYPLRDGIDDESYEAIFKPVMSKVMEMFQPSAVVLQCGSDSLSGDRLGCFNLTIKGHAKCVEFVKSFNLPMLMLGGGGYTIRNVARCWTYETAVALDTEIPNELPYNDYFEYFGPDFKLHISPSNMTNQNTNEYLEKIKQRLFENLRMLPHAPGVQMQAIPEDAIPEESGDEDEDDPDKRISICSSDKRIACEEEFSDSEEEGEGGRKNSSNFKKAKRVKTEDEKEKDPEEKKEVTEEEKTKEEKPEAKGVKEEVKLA
Sequence of UniProt P21741 (whole entry, looked up): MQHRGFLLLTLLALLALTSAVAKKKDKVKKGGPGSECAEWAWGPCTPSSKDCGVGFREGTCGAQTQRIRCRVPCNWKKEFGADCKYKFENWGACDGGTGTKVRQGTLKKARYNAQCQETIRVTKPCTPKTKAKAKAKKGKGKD
Sequence of UniProt P32245 (whole entry, looked up): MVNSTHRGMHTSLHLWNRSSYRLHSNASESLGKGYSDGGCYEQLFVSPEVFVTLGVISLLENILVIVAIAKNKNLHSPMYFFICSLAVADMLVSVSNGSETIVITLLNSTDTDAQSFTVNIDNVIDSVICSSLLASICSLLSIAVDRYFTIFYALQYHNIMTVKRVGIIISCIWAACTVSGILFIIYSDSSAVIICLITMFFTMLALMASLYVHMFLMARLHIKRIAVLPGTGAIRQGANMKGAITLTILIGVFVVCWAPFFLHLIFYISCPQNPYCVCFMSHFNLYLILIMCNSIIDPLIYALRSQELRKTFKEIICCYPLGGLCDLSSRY
Sequence of UniProt Q14524 (whole entry, looked up): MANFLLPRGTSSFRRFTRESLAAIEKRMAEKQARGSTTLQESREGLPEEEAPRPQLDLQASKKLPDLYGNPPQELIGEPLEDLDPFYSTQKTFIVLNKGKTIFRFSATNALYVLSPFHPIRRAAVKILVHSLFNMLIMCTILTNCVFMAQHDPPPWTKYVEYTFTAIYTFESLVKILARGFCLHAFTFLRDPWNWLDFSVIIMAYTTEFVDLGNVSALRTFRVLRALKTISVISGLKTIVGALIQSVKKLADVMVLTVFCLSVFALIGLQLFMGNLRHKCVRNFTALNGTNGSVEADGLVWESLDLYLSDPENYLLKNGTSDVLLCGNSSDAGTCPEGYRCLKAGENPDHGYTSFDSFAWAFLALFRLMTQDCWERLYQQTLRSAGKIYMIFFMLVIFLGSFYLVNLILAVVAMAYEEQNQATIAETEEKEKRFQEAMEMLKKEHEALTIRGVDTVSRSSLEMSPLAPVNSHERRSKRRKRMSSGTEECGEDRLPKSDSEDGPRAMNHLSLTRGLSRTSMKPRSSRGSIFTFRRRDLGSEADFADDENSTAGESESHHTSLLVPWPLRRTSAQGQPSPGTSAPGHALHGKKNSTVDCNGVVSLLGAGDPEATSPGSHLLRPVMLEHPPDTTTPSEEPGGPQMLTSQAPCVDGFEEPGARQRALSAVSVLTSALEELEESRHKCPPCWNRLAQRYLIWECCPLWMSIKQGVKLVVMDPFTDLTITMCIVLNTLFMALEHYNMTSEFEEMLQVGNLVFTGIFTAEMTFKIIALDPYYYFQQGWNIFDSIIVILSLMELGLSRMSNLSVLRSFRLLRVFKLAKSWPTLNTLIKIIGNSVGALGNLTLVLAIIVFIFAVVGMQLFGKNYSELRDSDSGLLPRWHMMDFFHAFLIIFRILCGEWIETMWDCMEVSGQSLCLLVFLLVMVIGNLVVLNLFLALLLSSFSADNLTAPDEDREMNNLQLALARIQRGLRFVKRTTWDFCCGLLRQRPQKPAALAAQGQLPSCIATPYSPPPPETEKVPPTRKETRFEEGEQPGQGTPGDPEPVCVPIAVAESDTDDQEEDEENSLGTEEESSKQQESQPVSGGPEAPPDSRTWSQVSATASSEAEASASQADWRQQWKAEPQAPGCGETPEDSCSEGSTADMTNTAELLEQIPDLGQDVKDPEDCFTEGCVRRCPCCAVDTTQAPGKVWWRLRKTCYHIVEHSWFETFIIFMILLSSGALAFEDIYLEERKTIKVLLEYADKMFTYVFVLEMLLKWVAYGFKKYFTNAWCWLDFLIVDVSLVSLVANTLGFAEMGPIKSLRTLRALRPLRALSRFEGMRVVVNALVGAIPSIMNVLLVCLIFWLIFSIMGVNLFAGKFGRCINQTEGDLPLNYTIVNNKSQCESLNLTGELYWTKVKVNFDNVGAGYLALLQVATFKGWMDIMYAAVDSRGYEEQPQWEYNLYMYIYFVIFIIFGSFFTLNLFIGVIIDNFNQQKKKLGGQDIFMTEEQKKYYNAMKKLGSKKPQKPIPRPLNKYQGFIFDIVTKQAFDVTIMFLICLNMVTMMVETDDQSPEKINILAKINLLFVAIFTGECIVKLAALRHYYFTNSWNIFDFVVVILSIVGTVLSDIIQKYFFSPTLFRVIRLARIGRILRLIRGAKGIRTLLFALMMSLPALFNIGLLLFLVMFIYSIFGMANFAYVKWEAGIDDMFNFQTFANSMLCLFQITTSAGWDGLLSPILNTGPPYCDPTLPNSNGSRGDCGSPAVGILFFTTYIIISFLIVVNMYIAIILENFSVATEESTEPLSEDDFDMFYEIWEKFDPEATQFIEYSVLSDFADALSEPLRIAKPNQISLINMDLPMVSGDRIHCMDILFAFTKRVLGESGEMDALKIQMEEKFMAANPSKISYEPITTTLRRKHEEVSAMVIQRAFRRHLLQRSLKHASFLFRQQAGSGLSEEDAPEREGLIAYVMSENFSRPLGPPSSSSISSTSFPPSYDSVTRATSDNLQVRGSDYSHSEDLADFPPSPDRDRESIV
Sequence of UniProt P07550 (whole entry, unmodified, looked up): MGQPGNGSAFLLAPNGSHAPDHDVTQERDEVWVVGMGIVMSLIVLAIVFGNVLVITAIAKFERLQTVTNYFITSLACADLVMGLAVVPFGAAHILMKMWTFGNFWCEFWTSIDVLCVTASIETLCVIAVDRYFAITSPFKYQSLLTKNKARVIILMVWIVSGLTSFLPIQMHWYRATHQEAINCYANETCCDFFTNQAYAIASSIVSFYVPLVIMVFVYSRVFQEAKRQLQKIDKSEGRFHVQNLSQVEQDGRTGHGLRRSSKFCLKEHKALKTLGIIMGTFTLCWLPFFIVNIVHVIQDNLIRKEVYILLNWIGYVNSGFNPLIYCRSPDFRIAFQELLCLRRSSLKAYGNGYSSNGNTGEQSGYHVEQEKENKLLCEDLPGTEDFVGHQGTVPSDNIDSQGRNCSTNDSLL

SMILES	tested on	test	system	setting	how to read	measurement	value
Cc1cccc(C)c1NC(=O)C(C(F)(F)F)C(F)(F)F	Rhomboid protease AarA	enzyme activity, inhibitor, fluorescence	–	–	–	IC50	16700 nM
Cc1c(Cc2cccc(OC(C)(C)C(=O)O)c2)c2ccc(C(=O)N[C@@H](C)c3cccc(C#N)c3)cc2n1C	PPARG ligand-binding domain	reporter gene, luciferase reporter	HEK293T, Gal4-PPARγ LBD	–	–	IC50	940 nM
COC1CN([C@H]2CC[C@H]([C@@]3(C)Oc4c(Cl)cc(C(=O)NCc5c(SC)cc(C)[nH]c5=O)c(C)c4O3)CC2)C1	–	RNA-seq, refers to: PCDH17	human, whole blood	dose not given, 24 h	relative to: pretreatment baseline	log2 fold change	5.52
Cc1c(Cc2cccc(OC(C)(C)C(=O)O)c2)c2ccc(C(=O)N[C@@H](C)c3cccc(OC(F)(F)F)c3)cc2n1C	PPARG ligand-binding domain	reporter gene, luciferase reporter	HEK293T, Gal4-PPARγ LBD	–	–	IC50	1530 nM
Cc1nn(-c2cccc(N)c2)c(=O)c2cnc(Nc3ccc(N4CCNCC4)cc3)nc12	Mitogen-activated protein kinase 1 (MAPK1, Homo sapiens, UniProt P28482)	enzyme activity, inhibitor	–	–	–	IC50	> 10000 nM
COCCNC(=O)COc1ccccc1NC(=O)C(C(F)(F)F)C(F)(F)F	Rhomboid protease AarA	enzyme activity, inhibitor, fluorescence	–	–	–	IC50	18000 nM
[N-]=[N+]=N[C@]1(COP(=O)(O)OP(=O)(O)OP(=O)(O)O)O[C@@H](n2ccc(N)nc2=O)[C@@H](F)[C@@H]1O	Gag-Pol polyprotein, reverse transcriptase (gag-pol, Human immunodeficiency virus type 1 group M subtype B, UniProt P04585)	reverse transcriptase activity, inhibitor	–	DNA template, with: dCTP 1 µM	–	IC50	4600 nM
O=C1COc2cc(C(=O)N(Cc3ccc(C(=O)Nc4ccc5c(c4)CCN(C(=O)CCCCC(O)S(=O)(=O)O)C5)cc3)C3CC3)ccc2N1 (stereo not shown)	Histone-lysine N-methyltransferase NSD2 (NSD2, Homo sapiens, UniProt O96028)	ligand displacement, TR-FRET	–	–	–	IC50	248 nM
CCC1(CC)CC(=O)N(C2c3cc(C(=O)NC4c5ccccc5CC4O)ccc3OC2(C)COC)C(=N)N1 (stereo not shown)	Sodium channel protein type 5 subunit alpha (SCN5A, Homo sapiens, UniProt Q14524)	ion current, inhibitor, patch clamp	HEK293	pH 7.3	–	IC50	15000 nM
CC[C@H](C)[C@@H]1NC(=O)[C@H](Cc2ccc(O)cc2)NC(=O)CSC[C@@H](C(N)=O)NC(=O)[C@H](CC(N)=O)NC(=O)[C@H](Cc2c[nH]cn2)NC(=O)[C@H](Cc2ccc(O)cc2)NC(=O)[C@H](CC(=O)O)NC(=O)[C@H](Cc2ccc(F)cc2)NC(=O)[C@H](CC(C)C)NC(=O)[C@H](CCCNC(=N)N)NC1=O	Melanoma-associated antigen 4 MAGE homology domain	binding, inhibitor, TR-FRET displacement	–	with: Alexa647-MTP-1	–	IC50	13.2 ± 5.5 nM
Cc1c(Cc2cccc(OC(C)C(=O)O)c2)c2ccc(C(=O)NC(C)c3ccc(C4CC4)cc3)cc2n1C (mixture of isomers)	PPARG	ligand displacement, TR-FRET	–	–	–	IC50	0.4 nM
Cc1ccc(S(=O)(=O)N2CC(NC(=O)c3ccccc3F)C2=O)cc1 (stereo not shown)	Rhomboid protease AarA	enzyme activity, inhibitor, fluorescence	–	–	–	IC50	212000 nM
Cc1nc2c(F)cc(-c3nc(Nc4ccc(NC(=O)CCCCCCC(=O)NO)cc4)ncc3F)cc2n1C(C)C	HDAC1	enzyme activity, inhibitor	–	–	–	IC50	7.4 nM
COCCNC(=O)c1ccccc1NC(=O)C(C(F)(F)F)C(F)(F)F	Rhomboid protease AarA	enzyme activity, inhibitor, fluorescence	–	–	–	IC50	18000 nM
CCn1c(C)c(Cc2cccc(OC(C)(C)C(=O)O)c2)c2ccc(C(=O)N[C@@H](C)c3cccc(C(C)(C)C)c3)cc21	PPARG	ligand displacement, TR-FRET	–	–	–	IC50	4 nM
Nc1ncc2c(n1)-c1c([nH]c3ccc(C4=CCOCC4)cc13)CCC2	Serine/threonine-protein kinase 16 (STK16, Homo sapiens, UniProt O75716)	enzyme activity, inhibitor, radiometric	–	–	–	IC50	1200 nM
CC(C)(Oc1ccc(Cl)cc1)C(=O)O	Taste receptor type 1 member 3, with T1R1 (TAS1R3, Homo sapiens, UniProt Q7RTX0, A733V)	–	–	–	–	IC50	440000 nM

SMILES	tested on	test	system	setting	how to read	measurement	value
Cc1c(Cc2cccc(OC(C)C(=O)O)c2)c2ccc(C(=O)N[C@@H](C)c3cccc(C(F)(F)F)c3)cc2n1C (stereo partly shown)	PPARG	ligand displacement, TR-FRET	–	–	–	IC50	13 nM
CCC(C(=O)NC1CCCCC1)n1c(SCc2cccc(F)c2)nc2ccncc21 (stereo not shown)	Cruzipain (Trypanosoma cruzi, UniProt P25779)	enzyme activity, inhibitor	–	–	–	IC50	6000 nM
O=C(CCNC(=O)CNC(=O)CC(c1ccccc1)(c1ccccc1)c1ccccc1)NC[C@@H]1CCCN(C[C@H]2C[C@H](F)C2)C1	Muscarinic acetylcholine receptor M4 (CHRM4, Homo sapiens, UniProt P08173)	ligand displacement, radioligand	–	cell membranes	–	IC50	> 30000 nM
CC(=O)N[C@@H](CCCNC(=N)N)C(=O)N[C@H]1CSSC[C@@H](C(N)=O)NC(=O)[C@H](Cc2c[nH]c3ccccc23)NC(=O)[C@H](CCCNC(=N)N)NC(=O)[C@@H](Cc2ccc3ccccc3c2)NC(=O)[C@H](Cc2c[nH]cn2)NC(=O)[C@@H](C)NC1=O	Melanocortin receptor 4 (MC4R, Homo sapiens, UniProt P32245)	antagonist, split-luciferase cAMP sensor	–	12 min, with: 70 nM α-MSH (EC90)	–	IC50	14.2 nM and 14.1 nM
COC(=O)CCCCCCNC(=O)c1ccc(Nc2ncc(F)c(-c3cc(F)c4nc(C)n(C(C)C)c4c3)n2)cc1	HDAC1	enzyme activity, inhibitor	–	–	–	IC50	> 1000 nM
Cc1ccc(S(=O)(=O)N2CC(NC(=O)c3ccccc3)C2=O)cc1 (stereo not shown)	Rhomboid protease AarA	enzyme activity, inhibitor, fluorescence	–	–	–	IC50	132000 nM
CC(C)C[C@H](NC(=O)[C@H](CC(C)C)NC(=O)CNC(=O)[C@H](C)NC(=O)[C@H](C)NC(=O)[C@H](CCCNC(=N)N)NC(=O)CNC(=O)CCCCNC(=O)CCCCNC(=O)CCCCNC(=O)[C@H](CCCCN)NC(=O)[C@H](Cc1ccc(O)cc1)NC(=O)[C@@H](N)Cc1cn(C)c2ccccc12)C(N)=O	Neuropeptides B/W receptor type 1 (NPBWR1, Homo sapiens, UniProt P48145)	calcium signal, antagonist	–	–	–	IC50	545 nM
O=C(NCc1ccccc1Cl)C(C(F)(F)F)C(F)(F)F	Rhomboid protease AarA	enzyme activity, inhibitor, fluorescence	–	–	–	IC50	9000 nM
Cc1nnc(-c2ccc(CC(=O)NC(CCN3C4CCC3CC(n3c(C)nnc3C(C)C)C4)c3ccccc3)cc2)nn1 (stereo not shown)	C-C chemokine receptor type 5 (CCR5, Homo sapiens, UniProt P51681, Y184K)	calcium mobilisation, inhibitor	HEK293T expressing CCR5	with: PSC-RANTES	–	IC50	1.54 nM and 2 nM and 1.58 nM
COc1ccc(O[C@@H]2O[C@H](COS(=O)(=O)O)[C@H](OS(=O)(=O)O)[C@H](O[C@@H]3O[C@H](C(=O)O)[C@@H](O[C@@H]4O[C@H](COS(=O)(=O)O)[C@H](OS(=O)(=O)O)[C@H](O[C@@H]5O[C@H](C(=O)O)[C@@H](OS(=O)(=O)O)[C@H](OCc6ccccc6)[C@H]5O)[C@H]4NC(C)=O)[C@H](OCc4ccccc4)[C@H]3O)[C@H]2NC(C)=O)cc1	Midkine (Homo sapiens, UniProt P21741)	heparin hexasaccharide binding, fluorescence polarisation competition	–	with: fluorescein-labelled hexasaccharide probe	–	IC50	25000 nM and 29000 nM
C#CCSc1nc(Sc2nnnn2-c2ccccc2)c2nnn(Cc3ccccc3Cl)c2n1	Lysine-specific histone demethylase 1A (KDM1A, Homo sapiens, UniProt O60341)	enzyme activity, inhibitor, fluorescence	–	–	–	IC50	49 nM
Cc1c(Cc2ccc(OC(C)C(=O)O)cc2)c2ccc(C(=O)N[C@@H](C)c3cccc(C(C)(C)C)c3)cc2n1C (stereo partly shown)	PPARG ligand-binding domain	reporter gene, luciferase reporter	HEK293T, Gal4-PPARγ LBD	–	–	IC50	7870 nM
CC[C@H](C)[C@@H]1NC(=O)[C@H](Cc2ccc(O)cc2)NC(=O)CSC[C@@H](C(N)=O)NC(=O)[C@H](CC(N)=O)NC(=O)[C@H](Cc2c[nH]cn2)NC(=O)[C@H](Cc2ccc(O)cc2)NC(=O)[C@H](CC(=O)O)NC(=O)[C@H](Cc2ccc(Cl)cc2)NC(=O)[C@H](CC(C)C)NC(=O)[C@H](CCCNC(=N)N)NC1=O	Melanoma-associated antigen 4 MAGE homology domain	binding, inhibitor, TR-FRET displacement	–	with: Alexa647-MTP-1	–	IC50	12.2 ± 3.4 nM
Cc1c(Cc2ccc(Cl)c(O[C@H](C)C(=O)O)c2)c2ccc(C(=O)NCc3ccc(C(C)(C)C)cc3)cc2n1C	PPARG ligand-binding domain	reporter gene, luciferase reporter	HEK293T, Gal4-PPARγ LBD	–	–	IC50	20100 nM
O=C(Nc1ccc(Oc2ccccc2)cc1)C(C(F)(F)F)C(F)(F)F	Rhomboid protease AarA	enzyme activity, inhibitor, fluorescence	–	–	–	IC50	8000 nM
Cc1c(Cc2ccc(OC(C)(C)C(=O)O)cc2)c2ccc(C(=O)N[C@@H](C)c3cccc(C(F)(F)F)c3)cc2n1C	PPARG	ligand displacement, TR-FRET	–	–	–	IC50	12 nM
Fc1ccc(Nc2nc(NC3CCCCC3)c3cc(Br)ccc3n2)cc1F	Beta-2 adrenergic receptor (ADRB2, Homo sapiens, UniProt P07550, V152G)	β-arrestin2 recruitment, antagonist, BRET	HEK293	mutant V152G, with: isoprenaline 1 µM	–	IC50	501 nM

For quick reference, copied from above:
SMILES	tested on	test	system	setting	how to read	measurement	value
COC(=O)CCCCCCNC(=O)c1ccc(Nc2ncc(F)c(-c3cc(F)c4nc(C)n(C(C)C)c4c3)n2)cc1	HDAC1	enzyme activity, inhibitor	–	–	–	IC50	> 1000 nM
Cc1ccc(S(=O)(=O)N2CC(NC(=O)c3ccccc3)C2=O)cc1 (stereo not shown)	Rhomboid protease AarA	enzyme activity, inhibitor, fluorescence	–	–	–	IC50	132000 nM
CC(C)C[C@H](NC(=O)[C@H](CC(C)C)NC(=O)CNC(=O)[C@H](C)NC(=O)[C@H](C)NC(=O)[C@H](CCCNC(=N)N)NC(=O)CNC(=O)CCCCNC(=O)CCCCNC(=O)CCCCNC(=O)[C@H](CCCCN)NC(=O)[C@H](Cc1ccc(O)cc1)NC(=O)[C@@H](N)Cc1cn(C)c2ccccc12)C(N)=O	Neuropeptides B/W receptor type 1 (NPBWR1, Homo sapiens, UniProt P48145)	calcium signal, antagonist	–	–	–	IC50	545 nM
